Experimental data of several laboratories.
Each numbered part is a random draw from the data of one study; scales do not carry over between parts. Positions count from the first letter of the parent shown.

Series 1 — target: UBE2D4 UBC core domain (UniProt Q9Y2X8); technique: yeast two-hybrid; medium: yeast; notes: mostly zero background; relative to: not given; direction: higher = stronger interaction
B1: TRIML1 RING domain (UniProt Q8N9V2); chain LMENLREELTCFICLDYFSSPVTTECGHSFCLVCLLRSWEEHNTPLSCPECWRTLEGPHFQS
B2: RNF208 RING domain (UniProt Q9H0X6); chain SSAAAGEPLECPTCGHSYNVTQRRPRVLSCLHSVCEQCLQILYESCPKYKFISCPTCRRETVLFTDYG
B3: TRIM43 RING domain (UniProt Q96BQ3); chain FSHAFQKELTCVICLNYLVDPVTICCGHSFCRPCLCLSWEEAQSPANCPACREPSPKMDFKT
B4: DTX4 RING domain (UniProt Q9Y2E6); chain QKVRHPPDEDCTICMERLTAPSGYKGPQPTVKPDLVGKLSRCGHVYHIYCLVAMYNNGNKDGSLQCPTCKTIYGVKTGTQ
B5: TRIM5 RING domain (UniProt Q9C035); chain ILVNVKEEVTCPICLELLTQPLSLDCGHSFCQACLTANHKKSMLDKGESSCPVCRISYQPENIRP
B6: TRAF5 RING domain (UniProt O00463); chain FVERLEERYKCAFCHSVLHNPHQTGCGHRFCQHCILSLRELNTVPICPVDKEVIKSQEVFK
Target sequence (chain): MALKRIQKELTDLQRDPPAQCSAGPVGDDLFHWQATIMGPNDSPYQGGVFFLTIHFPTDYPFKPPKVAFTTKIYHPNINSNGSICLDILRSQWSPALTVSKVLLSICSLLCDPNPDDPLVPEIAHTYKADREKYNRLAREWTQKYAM
Sequence	lacZ reporter activity
B1 (TRIML1 RING domain)	0
QVDKAVFHMQSVKCLKCQEQKRAVLPCQHAALCELCAEGSECPICQPGRAHTLQS (UNK RING domain (UniProt Q9C0B0))	0
B2 (RNF208 RING domain)	0
B3 (TRIM43 RING domain)	0
ASLPTSEEDLCPICYAHPISAVFQPCGHKSCKACINQHLMNNKDCFFCKTTIVSVEDWE (RNF123 RING domain (UniProt Q5XPI4))	0
B4 (DTX4 RING domain)	0
B5 (TRIM5 RING domain)	0
B6 (TRAF5 RING domain)	0

Series 2 — technique: cross-linking MS; notes: hits only
Molecule: Histone H2A type 1-B/E (Homo sapiens, UniProt P04908)
partner	interaction screen
H2BC20P (Homo sapiens, UniProt Q6DN03)	cross-linked
H2AC7 (Homo sapiens, UniProt P20671)	cross-linked
H3-7 (Homo sapiens, UniProt Q5TEC6)	cross-linked
H2BC3 (Homo sapiens, UniProt P33778)	cross-linked

Series 3 — effect on: peptide-MHC binding; form: peptide; concentration: concentration not given
Target: HLA class I histocompatibility antigen, A alpha chain, allele A*80:01 (Homo sapiens, UniProt P04439)
Sequence	binding
RVACRDVEV	inactive
YRRKLTNPA	inactive
KVVPRRKAK	inactive

Series 4 — technique: DHFR PCA, deep sequencing; medium: yeast; together with: (+)-ABA 2500 µM; relative to: wild-type fitted maximum; direction: higher = stronger binding
Target: ABI1, truncated, D143A, DHFR fusion (Arabidopsis thaliana)
Notes: methotrexate growth selection, single substitutions
Starting sequence: PYL1, truncated, DHFR fusion (Arabidopsis thaliana); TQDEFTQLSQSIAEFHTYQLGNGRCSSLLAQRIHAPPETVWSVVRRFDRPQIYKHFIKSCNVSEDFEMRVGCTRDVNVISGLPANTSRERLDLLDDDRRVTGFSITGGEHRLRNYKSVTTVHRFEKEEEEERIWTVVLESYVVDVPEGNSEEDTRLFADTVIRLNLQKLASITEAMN; partner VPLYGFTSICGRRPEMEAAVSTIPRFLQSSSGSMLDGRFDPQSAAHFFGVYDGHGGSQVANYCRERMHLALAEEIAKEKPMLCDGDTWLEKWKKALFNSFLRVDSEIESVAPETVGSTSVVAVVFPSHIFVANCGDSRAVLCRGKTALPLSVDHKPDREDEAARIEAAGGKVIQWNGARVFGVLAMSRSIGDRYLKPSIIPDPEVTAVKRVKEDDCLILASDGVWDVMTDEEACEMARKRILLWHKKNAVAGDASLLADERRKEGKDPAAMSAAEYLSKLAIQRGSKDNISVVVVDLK
Change	relative binding score [%]
R74M	-9.95
S150F	81.5
T1V	96.4
T135P	18.6
E109I	91.9
P83V	51
T135H	3.72
A170W	64.1

A few entries again (series 2):
partner	interaction screen
H2BC3 (Homo sapiens, UniProt P33778)	cross-linked
H2BC20P (Homo sapiens, UniProt Q6DN03)	cross-linked
